Measured values from different studies.
Parts stem from different laboratories: compare values within a part only.
Chain of UniProt Q02779 (whole entry, looked up): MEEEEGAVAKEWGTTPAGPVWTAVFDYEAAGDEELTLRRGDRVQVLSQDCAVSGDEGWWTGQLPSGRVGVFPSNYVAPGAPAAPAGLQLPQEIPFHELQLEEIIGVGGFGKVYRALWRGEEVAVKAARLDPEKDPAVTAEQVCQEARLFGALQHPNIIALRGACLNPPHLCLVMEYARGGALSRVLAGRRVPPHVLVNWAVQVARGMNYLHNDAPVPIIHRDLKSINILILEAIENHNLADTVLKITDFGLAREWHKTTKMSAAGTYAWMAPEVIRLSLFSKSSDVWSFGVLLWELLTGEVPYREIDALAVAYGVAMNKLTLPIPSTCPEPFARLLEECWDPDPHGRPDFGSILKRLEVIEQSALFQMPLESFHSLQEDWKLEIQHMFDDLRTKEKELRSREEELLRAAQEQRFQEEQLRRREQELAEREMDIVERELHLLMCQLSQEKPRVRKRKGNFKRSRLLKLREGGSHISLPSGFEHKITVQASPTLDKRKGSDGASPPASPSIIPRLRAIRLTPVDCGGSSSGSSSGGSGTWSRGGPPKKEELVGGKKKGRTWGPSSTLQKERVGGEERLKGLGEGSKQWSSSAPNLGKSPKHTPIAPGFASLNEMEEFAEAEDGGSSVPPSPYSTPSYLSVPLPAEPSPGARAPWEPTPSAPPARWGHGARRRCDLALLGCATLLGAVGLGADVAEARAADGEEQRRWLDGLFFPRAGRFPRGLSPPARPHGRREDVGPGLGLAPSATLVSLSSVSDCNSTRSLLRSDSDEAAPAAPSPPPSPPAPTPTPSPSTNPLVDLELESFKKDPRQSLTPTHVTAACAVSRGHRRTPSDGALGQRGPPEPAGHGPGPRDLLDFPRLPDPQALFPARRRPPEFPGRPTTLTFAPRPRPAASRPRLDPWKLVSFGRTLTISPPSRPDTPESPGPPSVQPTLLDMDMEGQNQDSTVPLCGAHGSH
Chain of UniProt P08922 (whole entry, looked up): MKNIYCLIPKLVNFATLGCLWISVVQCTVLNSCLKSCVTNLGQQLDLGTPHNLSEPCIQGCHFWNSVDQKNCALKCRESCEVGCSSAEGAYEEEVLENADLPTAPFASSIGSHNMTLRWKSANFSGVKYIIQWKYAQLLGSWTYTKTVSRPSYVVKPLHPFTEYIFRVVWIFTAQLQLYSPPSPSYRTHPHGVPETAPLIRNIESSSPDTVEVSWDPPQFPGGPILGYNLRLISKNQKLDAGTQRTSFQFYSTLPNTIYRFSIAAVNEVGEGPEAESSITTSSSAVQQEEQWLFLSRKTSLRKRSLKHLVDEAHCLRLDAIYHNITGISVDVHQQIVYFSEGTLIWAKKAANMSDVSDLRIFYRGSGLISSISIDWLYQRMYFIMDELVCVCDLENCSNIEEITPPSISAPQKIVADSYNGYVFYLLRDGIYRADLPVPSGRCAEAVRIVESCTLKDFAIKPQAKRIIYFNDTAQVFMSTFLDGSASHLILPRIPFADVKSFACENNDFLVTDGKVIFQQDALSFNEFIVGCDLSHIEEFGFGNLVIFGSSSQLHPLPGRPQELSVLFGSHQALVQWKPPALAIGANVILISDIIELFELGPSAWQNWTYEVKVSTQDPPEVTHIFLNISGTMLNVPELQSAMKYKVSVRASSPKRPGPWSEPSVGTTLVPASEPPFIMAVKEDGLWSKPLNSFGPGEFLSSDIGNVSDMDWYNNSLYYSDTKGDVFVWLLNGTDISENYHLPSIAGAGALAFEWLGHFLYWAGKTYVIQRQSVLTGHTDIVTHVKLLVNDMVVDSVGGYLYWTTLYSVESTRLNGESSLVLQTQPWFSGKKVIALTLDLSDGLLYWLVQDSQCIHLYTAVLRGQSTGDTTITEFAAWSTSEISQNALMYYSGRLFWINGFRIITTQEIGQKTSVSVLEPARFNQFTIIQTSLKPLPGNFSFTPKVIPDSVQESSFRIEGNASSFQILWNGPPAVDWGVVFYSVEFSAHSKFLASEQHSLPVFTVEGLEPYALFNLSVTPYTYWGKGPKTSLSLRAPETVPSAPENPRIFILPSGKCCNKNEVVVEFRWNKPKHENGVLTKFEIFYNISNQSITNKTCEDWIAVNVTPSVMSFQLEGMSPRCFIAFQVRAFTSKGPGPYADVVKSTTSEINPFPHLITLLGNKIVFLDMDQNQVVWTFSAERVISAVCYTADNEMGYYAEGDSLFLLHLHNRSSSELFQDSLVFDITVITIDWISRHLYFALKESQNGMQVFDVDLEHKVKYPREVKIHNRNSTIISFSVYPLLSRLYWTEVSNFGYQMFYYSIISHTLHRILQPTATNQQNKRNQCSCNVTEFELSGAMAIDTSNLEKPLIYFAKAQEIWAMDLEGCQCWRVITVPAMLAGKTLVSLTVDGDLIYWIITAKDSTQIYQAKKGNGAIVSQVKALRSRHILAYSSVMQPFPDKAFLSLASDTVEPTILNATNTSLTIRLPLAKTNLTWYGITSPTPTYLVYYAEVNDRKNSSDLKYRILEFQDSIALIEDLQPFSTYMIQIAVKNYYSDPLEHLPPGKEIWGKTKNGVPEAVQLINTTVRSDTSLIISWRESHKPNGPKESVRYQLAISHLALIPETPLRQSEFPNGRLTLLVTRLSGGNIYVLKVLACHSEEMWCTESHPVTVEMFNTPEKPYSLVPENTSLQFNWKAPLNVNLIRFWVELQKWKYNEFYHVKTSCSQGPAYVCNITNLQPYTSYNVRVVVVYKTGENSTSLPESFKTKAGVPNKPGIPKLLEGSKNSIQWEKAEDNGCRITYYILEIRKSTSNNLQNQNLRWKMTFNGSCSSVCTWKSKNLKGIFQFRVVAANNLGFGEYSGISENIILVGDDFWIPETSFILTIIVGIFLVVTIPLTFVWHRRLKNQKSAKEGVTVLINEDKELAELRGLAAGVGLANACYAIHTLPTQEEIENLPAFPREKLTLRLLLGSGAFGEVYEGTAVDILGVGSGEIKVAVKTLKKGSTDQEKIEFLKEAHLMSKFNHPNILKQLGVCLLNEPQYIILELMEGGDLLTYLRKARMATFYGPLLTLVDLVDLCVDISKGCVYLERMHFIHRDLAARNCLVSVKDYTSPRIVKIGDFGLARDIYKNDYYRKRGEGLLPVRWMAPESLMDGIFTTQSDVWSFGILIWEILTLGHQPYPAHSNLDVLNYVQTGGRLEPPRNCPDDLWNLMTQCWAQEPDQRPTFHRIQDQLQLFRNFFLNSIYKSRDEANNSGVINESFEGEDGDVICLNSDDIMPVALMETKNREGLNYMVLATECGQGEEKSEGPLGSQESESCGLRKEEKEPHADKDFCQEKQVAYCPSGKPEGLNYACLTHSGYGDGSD
Chain of UniProt P22607 (whole entry, looked up): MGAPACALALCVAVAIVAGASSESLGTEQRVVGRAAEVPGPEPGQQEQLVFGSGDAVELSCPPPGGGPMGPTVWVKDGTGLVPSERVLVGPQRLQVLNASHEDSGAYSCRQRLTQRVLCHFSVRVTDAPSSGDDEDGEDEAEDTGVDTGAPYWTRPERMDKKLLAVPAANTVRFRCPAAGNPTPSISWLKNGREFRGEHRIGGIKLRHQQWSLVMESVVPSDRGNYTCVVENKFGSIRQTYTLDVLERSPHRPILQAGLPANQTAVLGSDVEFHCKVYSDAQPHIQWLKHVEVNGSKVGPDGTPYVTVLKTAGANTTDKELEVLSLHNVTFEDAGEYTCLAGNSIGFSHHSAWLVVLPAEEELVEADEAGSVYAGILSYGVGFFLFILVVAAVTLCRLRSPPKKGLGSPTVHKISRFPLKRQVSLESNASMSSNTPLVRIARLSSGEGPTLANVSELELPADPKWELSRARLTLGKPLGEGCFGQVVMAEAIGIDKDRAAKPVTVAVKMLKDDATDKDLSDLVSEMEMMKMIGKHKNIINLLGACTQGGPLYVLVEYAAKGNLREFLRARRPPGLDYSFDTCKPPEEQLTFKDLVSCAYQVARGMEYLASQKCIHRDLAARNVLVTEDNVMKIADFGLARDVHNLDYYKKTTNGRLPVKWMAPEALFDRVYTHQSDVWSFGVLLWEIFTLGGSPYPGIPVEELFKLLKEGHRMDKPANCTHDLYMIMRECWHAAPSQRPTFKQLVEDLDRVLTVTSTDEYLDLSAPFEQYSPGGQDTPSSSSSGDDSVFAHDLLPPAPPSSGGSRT
Chain of UniProt P45985 (whole entry, looked up): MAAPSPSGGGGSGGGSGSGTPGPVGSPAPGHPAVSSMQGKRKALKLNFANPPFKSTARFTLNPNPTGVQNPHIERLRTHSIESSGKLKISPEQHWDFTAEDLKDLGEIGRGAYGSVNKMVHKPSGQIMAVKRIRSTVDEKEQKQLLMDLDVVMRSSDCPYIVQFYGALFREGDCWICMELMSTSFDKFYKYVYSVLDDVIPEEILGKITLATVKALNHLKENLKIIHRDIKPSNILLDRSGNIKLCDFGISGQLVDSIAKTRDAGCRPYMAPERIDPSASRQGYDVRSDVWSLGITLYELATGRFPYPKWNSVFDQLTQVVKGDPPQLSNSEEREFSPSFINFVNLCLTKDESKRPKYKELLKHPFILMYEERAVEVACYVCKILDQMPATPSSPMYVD
Chain of UniProt Q9NWZ3 (whole entry, looked up): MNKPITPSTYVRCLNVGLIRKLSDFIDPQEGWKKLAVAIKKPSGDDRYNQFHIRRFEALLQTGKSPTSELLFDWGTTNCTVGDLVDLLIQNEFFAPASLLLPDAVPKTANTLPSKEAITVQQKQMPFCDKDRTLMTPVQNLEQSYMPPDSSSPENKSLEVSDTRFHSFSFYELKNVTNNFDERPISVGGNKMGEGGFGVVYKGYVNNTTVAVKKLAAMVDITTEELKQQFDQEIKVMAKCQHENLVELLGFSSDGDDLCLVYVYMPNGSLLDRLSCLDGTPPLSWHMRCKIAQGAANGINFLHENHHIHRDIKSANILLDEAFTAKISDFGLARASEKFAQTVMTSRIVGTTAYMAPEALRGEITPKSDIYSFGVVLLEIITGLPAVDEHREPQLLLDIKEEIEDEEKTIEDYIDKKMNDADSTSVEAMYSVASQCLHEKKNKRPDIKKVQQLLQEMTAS

Set 1
Species: human
Medium: microsomes or S9
Concentration: 2 µM
Time: 0.5 h
Structure (SMILES)	remaining compound
CCOc1ccc(CCNS(=O)(=O)c2ccc3c(c2)C(C)(C)C(=O)N3)cc1OCC	< 1%
Cc1ccc(-c2ccccc2CN2C[C@@H](CN(C)C)[C@@H](CO)C2)o1	43.1%
COc1c(C)cnc(Cn2cnc3oc(C)c(C)c3c2=O)c1C	31.2%
O=c1c(C(c2ccncc2)c2c(O)nc3n(c2=O)CCCS3)c(O)nc2n1CCCS2	86.1%
CCN(CC)C(=O)Cn1nc(S(C)(=O)=O)nc1-c1ccccc1OC	90.2%
O=C(OCc1cc(Cl)cc2c1OCOC2)c1cc2ccccc2[nH]1	> 99.9%
Cc1cc(=O)n(CCNC(=O)c2nc3nc(C)cc(C)n3n2)cn1	> 99%
CCOC(=O)c1cccc(NC(=O)CC2C(=O)N(c3ccc(Cl)cc3)C(=O)N2C2CCCC2)c1 (stereo not shown)	4.33%
CCCNc1nc(C)cc(=O)n1Cc1ccc(-c2ccccc2-c2nnn[nH]2)cc1	2.33%
COC(=O)C(OC(C)(C)C)c1cc2c(nc1C)C(=O)NCC2 (stereo not shown)	80%
Nc1cccc(CCC2CCc3ccccc3N2)c1 (stereo not shown)	70.6%
CC1(C)Cc2ccccc2C(c2sc3nc4c(cc3c2N)CCC4)=N1	0.559%

Set 2
Compound: Cc1cc(Nc2cc(N3CCN(C)CC3)nc(Sc3ccc(NC(=O)C4CC4)cc3)n2)[nH]n1
Effect on: enzyme activity
Action: inhibitor
Concentration: 0.5 µM
Relative to: control
target	remaining activity [%]
Ephrin type-A receptor 5 (EPHA5, Homo sapiens, UniProt P54756)	88
Tyrosine-protein kinase Lyn (LYN, Homo sapiens, UniProt P07948)	52.6
Serine/threonine-protein kinase Nek4 (NEK4, Homo sapiens, UniProt P51957)	103
Protein kinase C iota type (PRKCI, Homo sapiens, UniProt P41743)	98.9
Interleukin-1 receptor-associated kinase 4 (IRAK4, Homo sapiens, UniProt Q9NWZ3)	78
Serine/threonine-protein kinase WNK2 (WNK2, Homo sapiens, UniProt Q9Y3S1)	96
Serine/threonine-protein kinase 38 (STK38, Homo sapiens, UniProt Q15208)	97.8
cGMP-dependent protein kinase 1 (PRKG1, Homo sapiens, UniProt Q13976)	90.8
Serine/threonine-protein kinase PLK2 (PLK2, Homo sapiens, UniProt Q9NYY3)	104
Leucine-rich repeat serine/threonine-protein kinase 2 (LRRK2, Homo sapiens, UniProt Q5S007)	56.4
Mitogen-activated protein kinase kinase kinase 10 (MAP3K10, Homo sapiens, UniProt Q02779)	61
Mitogen-activated protein kinase 13 (MAPK13, Homo sapiens, UniProt O15264)	89.5
Casein kinase II subunit alpha (CSNK2A1, Homo sapiens, UniProt P68400)	114
Tyrosine-protein kinase BTK (BTK, Homo sapiens, UniProt Q06187)	63.6
Mitogen-activated protein kinase kinase kinase kinase 2 (MAP4K2, Homo sapiens, UniProt Q12851)	102
Mitogen-activated protein kinase 12 (MAPK12, Homo sapiens, UniProt P53778)	96.2
Mast/stem cell growth factor receptor Kit (KIT, Homo sapiens, UniProt P10721)	89.2
Cyclin-dependent kinase 9, with cyclin T1 (CDK9, Homo sapiens, UniProt P50750)	93.1
RAC-gamma serine/threonine-protein kinase (AKT3, Homo sapiens, UniProt Q9Y243)	85
MAP kinase-interacting serine/threonine-protein kinase 2 (MKNK2, Homo sapiens, UniProt Q9HBH9)	97.6
Protein kinase C delta type (PRKCD, Homo sapiens, UniProt Q05655)	97.5
Serine/threonine-protein kinase Chk1 (CHEK1, Homo sapiens, UniProt O14757)	77.1

Set 3
Cell line: HaCaT
Concentration: 100 µM
Time: 18 h
SMILES	viability
O=C1c2c(O)cccc2Cc2cccc(O)c21	99.4%
CC[C@H]1OC(=O)[C@H](C)[C@@H](O[C@H]2C[C@@](C)(OC)[C@@H](O)[C@H](C)O2)[C@H](C)[C@@H](O[C@@H]2O[C@H](C)C[C@H](N(C)C)[C@H]2O)[C@](C)(O)C[C@@H](C)C(=O)[C@H](C)[C@@H](O)[C@]1(C)O	98%
CCOC(=O)C(C)(C)Oc1ccc(Cl)cc1	54.8%
NCc1ccc(S(N)(=O)=O)cc1	107%
O=c1oc2cc(O)ccc2s1	115%
CN(Cc1cnc2nc(N)nc(N)c2n1)c1ccc(C(=O)N[C@@H](CCC(=O)O)C(=O)O)cc1	84.9%
CC(C)(C)C(=O)C(Oc1ccc(Cl)cc1)n1ccnc1 (stereo not shown)	91.8%
CCn1cc(C(=O)O)c(=O)c2cc3c(cc21)OCO3	114%
CN(C)CCC=C1c2ccccc2C=Cc2ccccc21	36.4%
OCCN1CCN(CCCN2c3ccccc3Sc3ccc(Cl)cc32)CC1	19.3%
COc1ccccc1N1CCN(CC(O)COc2cccc3ccccc23)CC1 (stereo not shown)	17.8%

Set 4
SMILES: O=C(NCc1ncc(C(F)(F)F)cc1Cl)c1ccc2c(c1)C1(CCS(=O)(=O)CC1)[C@@H](C1CC1)N2S(=O)(=O)c1ccc(F)cc1
Effect on: cell-free assay
Method: competition with immobilised ligand
Concentration: 1 µM
target	remaining binding [%]
Tyrosine-protein kinase Fes/Fps (FES, Homo sapiens, UniProt P07332)	93
Activin receptor type-1 (ACVR1, Homo sapiens, UniProt Q04771)	97
Phosphatidylinositol 4,5-bisphosphate 3-kinase catalytic subunit alpha isoform (PIK3CA, Homo sapiens, UniProt P42336, E542K)	82
Hepatocyte growth factor receptor (MET, Homo sapiens, UniProt P08581)	81
Activin receptor type-1-like (ACVRL1, Homo sapiens, UniProt P37023)	72
Fibroblast growth factor receptor 3 (FGFR3, Homo sapiens, UniProt P22607)	100
Calcium/calmodulin-dependent protein kinase kinase 1 (CAMKK1, Homo sapiens, UniProt Q8N5S9)	72
Mitogen-activated protein kinase kinase kinase 5 (MAP3K5, Homo sapiens, UniProt Q99683)	100
Dual specificity mitogen-activated protein kinase kinase 4 (MAP2K4, Homo sapiens, UniProt P45985)	76
Proto-oncogene tyrosine-protein kinase ROS (ROS1, Homo sapiens, UniProt P08922)	100
Vascular endothelial growth factor receptor 3 (FLT4, Homo sapiens, UniProt P35916)	100
Tyrosine-protein kinase Blk (BLK, Homo sapiens, UniProt P51451)	100
Maternal embryonic leucine zipper kinase (MELK, Homo sapiens, UniProt Q14680)	100
Calcium/calmodulin-dependent protein kinase kinase 2 (CAMKK2, Homo sapiens, UniProt Q96RR4)	83
Ephrin type-A receptor 1 (EPHA1, Homo sapiens, UniProt P21709)	86
Epidermal growth factor receptor (EGFR, Homo sapiens, UniProt P00533, del752-759)	87
5'-AMP-activated protein kinase catalytic subunit alpha-1 (PRKAA1, Homo sapiens, UniProt Q13131)	97
Serine/threonine-protein kinase 25 (STK25, Homo sapiens, UniProt O00506)	99
Serine/threonine-protein kinase PAK 1 (PAK1, Homo sapiens, UniProt Q13153)	80
